Measurements collected from several papers.
Numbered parts are unrelated; each lists some results of a single study.

Set 1 — method: RNA Bind-n-Seq; molecule type: RNA; medium: in vitro; tested at: 365 nM; relative to: no-protein control; reading: higher = stronger binding
Target: RNA binding protein fox-1 homolog 2, RRM domain, GST-SBP tag (RBFOX2, Homo sapiens, UniProt O43251-10, residues 100-194)
Setting: natural RNA segment, single round, ends assumed
Shared flanks, not repeated: GGGAGUUCUACAGUCCGACGAUC … UGGAAUUCUCGGGUGCCAA
Construct (chain): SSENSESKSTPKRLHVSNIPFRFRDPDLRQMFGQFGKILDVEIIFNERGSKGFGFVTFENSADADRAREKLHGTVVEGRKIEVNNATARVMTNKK
Oligonucleotide | RBNS enrichment (R)
CAUCCCUCAGUUGGUCCAUUGUAAUGAUGAUCGUCCUCAUCUGAGUGACAGUUACUGCCCAGGGUCCAGCCAAGGACAGGUACAGGAAGGCAGAGAUCACUAUAGAGCCA | 0.311
ACCCAAGGUGGGCGCCUUCCCCUCUUGUGCCCAGGGCGGUGGGCGUGGUGUCCACCCGCCCCUCCUGGUGCCCACGGUGGAUACUGCAUGAUGUGAACCUUGGUUUUGAA | 18.8
CUCCCCAUCAUCCACGCCAAGUGGAAGCCACUGGACCACAGGAGGUGUGAUAGAGCCUUUGAUCUUCAGGAUGCACGGUUUCUGUUCUGCCCCCUCAGGGAUGUGGGAAU | 0.22
UCUACCACUACAUGGAAUGACAUAAAAGCAACUUGUAGGCCAGAGGGGUGGGGUGAACCCUUCUGUGGUCUGUACCCCUGGUCUAGUGGGAGGAAUCCCUGAAGACCUGC | 0.523
UCUGCCACAGUACAAGGUACAGAGUAUGGGCAUCUUAGAGGAAAUGUCUGCUUCCGUCCCCUCGUUCUGGUGAACGUUGGGAGAGAGGAUGAGAGAGACAUUAAAAUUCU | 0.485
UGUUUUCUUAGGUGUGCACUUUUAUAGUCUGUUUUUGAAGAUUAACACAUUUGCAAGGUGAUUGACACCAUCUUUGCCUAAAUGCAGUGAGUGUACAGGAAGCUCGUUCU | 0.268

Set 2 — method: aptamer microarray, sandwich; molecule type: DNA with 2'F-ANA; medium: in vitro; tested at: 200 nM; added: Cy3 exosite-II aptamer, 400 nM; reading: higher = stronger binding; oligonucleotide: GGTTGGTGTGGTTGG
Target: Prothrombin, mature alpha-thrombin (F2, Homo sapiens, UniProt P00734)
Setting: whole 15-mer aptamer, many near background
Modification | mean fluorescence intensity [a.u.]
2'F-ANA at 2 3 6 7 11 13 15 | 527
2'F-ANA at 1 3 4 7 8 11 13 15 | 167
2'F-ANA at 2 5 6 9 10 12 14 | 43.1
2'F-ANA at 4 6 8 9 11 12 14 | 86.5
2'F-ANA at 2 4 7 10 13 14 15 | 63.4
2'F-ANA at 1 4 7 8 9 15 | 171

Set 3 — method: protein binding microarray; molecule type: double-stranded DNA, one strand shown; medium: in vitro; tested at: not given; relative to: not given; reading: higher = stronger binding
Target: Histone acetyltransferase KAT6A, winged helix 1, GST fusion (KAT6A, Homo sapiens, UniProt Q92794, residues 1-85)
Setting: 8-mer, flanks averaged, mean of 2 arrays, mostly near background
Target sequence (chain): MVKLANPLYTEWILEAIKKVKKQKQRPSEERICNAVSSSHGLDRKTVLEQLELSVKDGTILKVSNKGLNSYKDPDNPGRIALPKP
Oligonucleotide | E-score
CGGCTCGA | 0.207
ACCTGTAT | -0.193
ATATGCCC | -0.153
AGCGCTAC | 0.336
CGAATTAG | -0.139
AGGTCAGG | -0.256

Other studies, line by line
Molecule | target | test | system | setting | scale | quantity | result
PhoQ, residues 284 288 289 292 302 303 AGHLVA | PhoP, residues 12 14 15 18 19 NQGLL (Escherichia coli, UniProt P23836) | Sort-seq, refers to: YFP reporter | E. coli | PhoQ-PhoP variant library, added: 10 µM Mg2+ | relative to: high Mg2+ state, higher = stronger signaling | fold induction | 3.24

Excerpt of the above (set 3):
Oligonucleotide | E-score
ATATGCCC | -0.153
CGGCTCGA | 0.207
